Experimental data of several laboratories.
Values joined by “and” are separate records of one study, mostly repeats; a detail may differ. Numbers after ± are the reported error.
Sequence of UniProt P35414 (whole entry, looked up): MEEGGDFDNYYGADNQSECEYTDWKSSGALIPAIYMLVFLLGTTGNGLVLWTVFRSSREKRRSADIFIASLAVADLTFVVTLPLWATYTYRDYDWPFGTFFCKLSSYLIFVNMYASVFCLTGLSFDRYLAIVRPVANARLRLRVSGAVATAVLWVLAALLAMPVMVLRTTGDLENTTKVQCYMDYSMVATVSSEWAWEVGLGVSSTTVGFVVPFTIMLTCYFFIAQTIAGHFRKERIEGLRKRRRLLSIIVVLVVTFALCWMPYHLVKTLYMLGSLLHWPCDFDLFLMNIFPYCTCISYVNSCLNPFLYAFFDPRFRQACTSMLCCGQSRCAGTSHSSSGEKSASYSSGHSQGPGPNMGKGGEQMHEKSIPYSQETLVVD
Sequence of UniProt P23284 (whole entry, looked up): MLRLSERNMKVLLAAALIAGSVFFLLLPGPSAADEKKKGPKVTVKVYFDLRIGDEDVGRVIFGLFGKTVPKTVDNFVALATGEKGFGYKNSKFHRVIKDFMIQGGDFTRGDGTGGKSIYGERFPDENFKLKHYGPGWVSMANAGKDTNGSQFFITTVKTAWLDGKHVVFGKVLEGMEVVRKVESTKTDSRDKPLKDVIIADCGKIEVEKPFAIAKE
Sequence of UniProt Q12769 (whole entry, looked up): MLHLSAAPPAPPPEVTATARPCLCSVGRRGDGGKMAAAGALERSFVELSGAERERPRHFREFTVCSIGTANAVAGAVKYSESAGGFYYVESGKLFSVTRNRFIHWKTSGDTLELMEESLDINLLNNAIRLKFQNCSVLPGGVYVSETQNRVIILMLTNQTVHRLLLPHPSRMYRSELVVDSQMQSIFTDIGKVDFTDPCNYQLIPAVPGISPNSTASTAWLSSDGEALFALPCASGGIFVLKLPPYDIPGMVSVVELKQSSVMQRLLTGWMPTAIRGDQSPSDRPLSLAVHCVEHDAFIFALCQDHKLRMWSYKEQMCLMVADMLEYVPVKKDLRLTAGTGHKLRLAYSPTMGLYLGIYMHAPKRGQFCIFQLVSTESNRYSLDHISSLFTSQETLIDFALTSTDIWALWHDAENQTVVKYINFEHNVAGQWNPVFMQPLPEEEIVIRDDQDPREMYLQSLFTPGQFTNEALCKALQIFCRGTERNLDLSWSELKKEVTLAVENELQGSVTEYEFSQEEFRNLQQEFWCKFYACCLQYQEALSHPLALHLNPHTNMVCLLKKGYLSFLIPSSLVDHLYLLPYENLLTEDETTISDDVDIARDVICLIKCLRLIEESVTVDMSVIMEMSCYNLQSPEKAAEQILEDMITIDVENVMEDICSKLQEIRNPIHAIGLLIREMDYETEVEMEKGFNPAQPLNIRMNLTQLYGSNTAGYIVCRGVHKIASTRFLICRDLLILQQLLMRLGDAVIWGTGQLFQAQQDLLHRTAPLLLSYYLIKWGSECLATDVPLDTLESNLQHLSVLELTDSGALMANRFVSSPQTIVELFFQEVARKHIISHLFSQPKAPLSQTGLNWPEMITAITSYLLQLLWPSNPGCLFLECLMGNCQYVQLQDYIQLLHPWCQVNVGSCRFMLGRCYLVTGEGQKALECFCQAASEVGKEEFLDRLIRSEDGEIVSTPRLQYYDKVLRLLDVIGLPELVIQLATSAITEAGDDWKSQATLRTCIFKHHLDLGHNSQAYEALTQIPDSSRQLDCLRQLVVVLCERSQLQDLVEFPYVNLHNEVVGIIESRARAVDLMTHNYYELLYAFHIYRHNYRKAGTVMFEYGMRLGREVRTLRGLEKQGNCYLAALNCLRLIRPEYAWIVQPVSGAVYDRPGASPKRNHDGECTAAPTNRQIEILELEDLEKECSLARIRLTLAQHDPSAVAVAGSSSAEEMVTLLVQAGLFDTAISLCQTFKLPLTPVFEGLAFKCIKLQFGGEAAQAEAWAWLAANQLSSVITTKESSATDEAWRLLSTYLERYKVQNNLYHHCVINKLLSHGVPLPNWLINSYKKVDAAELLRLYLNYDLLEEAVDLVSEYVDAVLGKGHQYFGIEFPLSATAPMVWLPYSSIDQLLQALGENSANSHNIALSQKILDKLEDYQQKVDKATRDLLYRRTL
Sequence of UniProt Q9NRA0 (whole entry, looked up): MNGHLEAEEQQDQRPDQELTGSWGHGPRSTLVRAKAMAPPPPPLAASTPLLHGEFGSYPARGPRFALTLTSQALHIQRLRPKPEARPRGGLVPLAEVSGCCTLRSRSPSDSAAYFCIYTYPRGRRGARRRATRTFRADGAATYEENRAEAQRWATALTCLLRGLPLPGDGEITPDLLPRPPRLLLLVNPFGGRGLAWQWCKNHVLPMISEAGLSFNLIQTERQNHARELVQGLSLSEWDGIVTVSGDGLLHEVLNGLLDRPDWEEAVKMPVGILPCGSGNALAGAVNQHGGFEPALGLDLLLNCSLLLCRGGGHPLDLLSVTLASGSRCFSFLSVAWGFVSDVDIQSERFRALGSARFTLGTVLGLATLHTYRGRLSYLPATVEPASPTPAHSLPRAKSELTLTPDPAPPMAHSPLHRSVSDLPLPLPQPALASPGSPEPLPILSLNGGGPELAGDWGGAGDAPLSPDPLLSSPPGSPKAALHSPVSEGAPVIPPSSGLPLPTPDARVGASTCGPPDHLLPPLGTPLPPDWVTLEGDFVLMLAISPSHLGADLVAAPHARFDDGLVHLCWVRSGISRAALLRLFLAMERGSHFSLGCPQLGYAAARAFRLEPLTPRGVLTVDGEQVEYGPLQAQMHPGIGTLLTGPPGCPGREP

CC/C(=C(\c1ccccc1)c1ccc(OCCN(C)C)cc1)c1ccccc1
elimination rate constant (CD-1 mouse, male, lung; intraperitoneal, 10 mg/kg): 3.42e-05 s⁻¹

O=c1ccc2ccccc2o1
point of departure (HepG2; item: mitochondrial reserve capacity; 1 h, Seahorse mitochondrial toxicity panel): 8.29 µM

C[C@H]1CN(c2n[nH]c3nc(N[C@H]4CC[C@H](NS(=O)(=O)CCC(F)(F)F)CC4)ncc23)CCO1
remaining binding (Nuclear pore complex protein Nup160 (Homo sapiens, UniProt Q12769); Kinobeads competition, item: NUP160; 0.16 µM, unit not given; relative to: vehicle): 0.96

COc1cc2c(Oc3ccc4[nH]c(C)cc4c3F)ccnc2cc1OCC1(N)CC1
grade 3 Leukopenia (paediatric recurrent refractory sarcoma; 12 mg): 0%

CN1CC[C@@H](c2c(O)cc(O)c3c(=O)cc(-c4ccc(C(F)(F)F)cc4Cl)oc23)[C@@H]1CO
patients with adverse event (item: respiratory failure; AML; oral, 150 mg, grade 3 to 4, intermittent dosing): 25%

C[C@@H]1NC(=O)[C@H](CCCCNC(=O)CO/N=C/C(=O)NCCCC[C@@H]2NC(=O)[C@@H](Cc3ccccc3)NC(=O)[C@H](CC(=O)O)NC(=O)CNC(=O)[C@H](CCCNC(=N)N)NC2=O)NC(=O)CNC(=O)[C@@H]2CCCN2C(=O)[C@H](CCCCNC(=O)CO/N=C/C(=O)NCCCC[C@@H]2NC(=O)[C@@H](Cc3ccccc3)NC(=O)[C@H](CC(=O)O)NC(=O)CNC(=O)[C@H](CCCNC(=N)N)NC2=O)NC(=O)[C@H](CCCCNC(=O)CCNC(=O)CCNC(=O)CCNC(=O)[C@H](CCCCN)NC(=O)[C@H](Cc2ccccc2)NC(=O)CNC(=O)CN2CCCNCCNCCCNCC2)NC(=O)[C@H](CCCCNC(=O)CO/N=C/C(=O)NCCCC[C@@H]2NC(=O)[C@@H](Cc3ccccc3)NC(=O)[C@H](CC(=O)O)NC(=O)CNC(=O)[C@H](CCCNC(=N)N)NC2=O)NC(=O)CNC(=O)[C@@H]2CCCN2C(=O)[C@H](CCCCNC(=O)CO/N=C/C(=O)NCCCC[C@@H]2NC(=O)[C@@H](Cc3ccccc3)NC(=O)[C@H](CC(=O)O)NC(=O)CNC(=O)[C@H](CCCNC(=N)N)NC2=O)NC1=O [copper-64 labelled]
tissue uptake (normal mice, liver; intravenous, 0.74 MBq, 3 h post-injection): 35.2 ± 1.87 %ID/g

CC(=O)N1CCC(C(=O)N2CCN3C(=O)c4cc(-c5ccccc5)ccc4NC(=O)C3C2)CC1 (stereo not drawn)
revertants per plate (Salmonella typhimurium; TA100; 5.0 µg/plate, added: rat liver S9): 112

O=[Se](=O)([O-])[O-].[Na+].[Na+]
apparent clearance (CL/F) (rat; subcutaneous, 0.2 mg/kg): 11 mL/day/kg

Cn1cncc1-c1c(F)cncc1NC(=O)c1c(N)nn2cc(F)cnc12
grade ≥3 lymphocyte decrease incidence (human patients; oral, 180 mg once daily): 27%

CCOc1cc(Oc2ccc(C(F)(F)F)cc2Cl)ccc1[N+](=O)[O-]
body weight gain (rat male; 62.5 mg/kg, 8 days): 73.4%

CCN(CCO)CCCC(C)Nc1ccnc2cc(Cl)ccc12 (stereo not drawn)
anemia patients (newly diagnosed glioblastoma patients; oral, 800 mg/dose, grade 1, added: radiotherapy and temozolomide): 33%

C1=Cc2nc1cc1ccc([n-]1)c(C1CC1)c1nc(cc3ccc([n-]3)c2C2CC2)C=C1.CC(=O)[O-].[Mn+3]
plasma concentration (LC-MS/MS; Sprague-Dawley rat, plasma; oral gavage, dose not given, 120 min): 324 ng/mL and 406 ng/mL

CO[C@H]1C[C@@H]2CC[C@@H](C)[C@@](O)(O2)C(=O)C(=O)N2CCCC[C@H]2C(=O)O[C@H]([C@H](C)C[C@@H]2CC[C@@H](OC(=O)NCCOCCOCCOCCOCCOCCOCCOCCOCCC(=O)N3CCc4cc(Cn5nc(-c6ccc7oc(N)nc7c6)c6c(N)ncnc65)ccc4C3)[C@H](OC)C2)C[C@@H](O)[C@H](C)/C=C(\C)[C@@H](O)[C@@H](OC)C(=O)[C@H](C)C[C@H](C)/C=C/C=C/C=C/1C
headache incidence (patients with advanced solid tumours; intravenous, 8 mg weekly, grade 3 or higher): 0%

CC(=O)c1c(C)c2cnc(Nc3ccc(C4CCN(CCS(C)(=O)=O)CC4)cn3)nc2n(C2CCCC2)c1=O
patients with any TRAE (HR+/HER2- advanced breast cancer patients; oral, 25 mg): 66.7%

OCc1ncc2n1-c1ccc(Cl)cc1C(c1ccccc1F)=NC2
geometric LS mean ratio of Cmax (CYP3A4 (human); human, plasma; oral, 2 mg midazolam, Day 14, added: encorafenib at steady state; relative to: Day -7): 1.25

C[C@@H](O)[C@@H](CO)NC(=O)[C@@H](CCCNC(=N)N)NC(=O)[C@@H]1CCCN1C(=O)[C@@H]1CSSC[C@H](NC(=O)[C@H](Cc2ccccc2)NC(=O)CN2CCN(CC(=O)O)CCN(CC(=O)O)CCN(CC(=O)O)CC2)C(=O)N[C@@H](Cc2ccc(O)cc2)C(=O)N[C@@H](Cc2ccccc2)C(=O)N[C@@H](CCC(N)=O)C(=O)N[C@@H](CC(N)=O)C(=O)N1 [gallium-68 labelled]
tissue uptake (Wistar rat, bone; intravenous, 8 MBq, 120 min, group mean): 0.02 %ID/g

Clc1ccc(-c2ccc(Cl)c(Cl)c2Cl)c(Cl)c1
literature range factor (polyethylene-water partitioning; PCB compilation; relative to: maximum over minimum K): 1.1

N=C(N)NCCC[C@@H](NC(=O)[C@@H](N)Cc1ccccc1)C(=O)N[C@@H](Cc1ccccc1)C(=O)N[C@@H](CCCCN)C(N)=O
median fraction excreted in urine (LC-MS; human; 15 mg, 23.83 h): 2.35%

CCCC1CCC(C2CCC(c3ccc(F)c(F)c3)CC2)CC1 (stereo not drawn)
concentration (item: compound; human pregnant women, female fetuses, maternal serum; dose not given, paired maternal-cord samples, mean): 0.81 ng/mL

Cc1cc(C(=O)NC(C)(C)COc2cccc3c2C(N)=NS(=O)(=O)N3)cc(C)n1
revertant ratio (Salmonella typhimurium; Ames test, initial; TA1535; 150 µg/plate, added: rat liver S9; relative to: solvent control): 1.2

CC(C)=CC1C(C(=O)OC(C#N)c2cccc(Oc3ccccc3)c2)C1(C)C (stereo not drawn)
CLint (pooled human liver cytosol): 1350 µL/min/mg

C[C@]1(CO)Cc2ncn(-c3ccc(C#N)c(Cl)c3)c2C(=O)O1
AUC(0-inf) (healthy Japanese adults, plasma; 40 mg once daily, after first dose, multiple dose): 15.8 µM·h

COc1ccc(N2C(=O)N(c3c(C)cccc3Cl)Cc3cnc(Nc4ccc(C5CCN(C)CC5)cc4OC)nc32)nc1
inhibition (SPHK2 (Homo sapiens, UniProt Q9NRA0); kinase activity; 0.5 µM): -2.46%

O=C(Nc1ccccc1)C1CCN(C(=O)Oc2cccnc2)CC1
change in Anxious score (psychotropic effects VAS; healthy women; 100 mg; relative to: pre-dose baseline, direction not given): -0.5

CN1CCN(c2ccc(Nc3nccc(-c4cccc(F)c4)n3)cc2C(F)(F)F)CC1
toxicity (zebrafish embryos; 50 µM, 5 d): 0%

CC[C@H](C)[C@H](NC(=O)[C@H](Cc1ccccc1)NC(=O)[C@H](CCC(=O)O)NC(=O)[C@H](CCCNC(=N)N)NC(=O)[C@H](C)NC(=O)[C@H](C)NC(=O)[C@H](CCC(N)=O)NC(=O)[C@H](CCC(=O)O)NC(=O)[C@H](CCC(=O)O)NC(=O)[C@H](CC(C)C)NC(=O)[C@H](Cc1ccc(O)cc1)NC(=O)[C@H](CO)NC(=O)[C@H](CO)NC(=O)[C@@H](NC(=O)[C@H](CC(=O)O)NC(=O)[C@H](CO)NC(=O)[C@@H](NC(=O)[C@H](Cc1ccccc1)NC(=O)[C@@H](NC(=O)CNC(=O)[C@H](CCC(=O)O)NC(=O)[C@H](C)NC(=O)CCc1c[nH]cn1)[C@@H](C)O)[C@@H](C)O)C(C)C)C(=O)N[C@@H](C)C(=O)N[C@@H](Cc1c[nH]c2ccccc12)C(=O)N[C@@H](CC(C)C)C(=O)N[C@H](C(=O)N[C@@H](CCCNC(=N)N)C(=O)NCC(=O)N[C@@H](CCCNC(=N)N)C(=O)N[C@@H](CCCCNC(=O)COCCOCCNC(=O)COCCOCCNC(=O)CC[C@H](NC(=O)CCCCCCCCCCCCCCCCC(=O)O)C(=O)O)C(=O)NCC(=O)NCC(=O)N[C@@H](CO)C(=O)N[C@@H](CCCCNc1c(NCCCCCN(O)C(=O)CCC(=O)NCCCCCN(O)C(=O)CCC(=O)NCCCCCN(O)C(C)=O)c(=O)c1=O)C(=O)O)C(C)C [zirconium-89 labelled]
tissue uptake (rat, bone marrow; sc, 3 nmol/kg, 24 h, ex vivo): 1.01 %ID/g

CC[C@H](C)[C@@H]1NC(=O)[C@@H]2CCCN2C(=O)[C@H](CC(C)C)NC(=O)[C@H](CC(C)C)NC(=O)CNC(=O)[C@@H](NC(=O)[C@@H](NC(=O)[C@H](CC(=O)O)NC(=O)CNC(=O)[C@@H](NC(=O)[C@H](C)NC(=O)CNC(=O)[C@H](CCCCN)NC(=O)[C@H](CC(C)C)NC(=O)[C@H](CC(C)C)NC(=O)[C@H](CCCCN)NC(=O)CNC(=O)[C@@H](NC(=O)[C@@H](N)CC(C)C)C(C)C)C(C)C)C(C)C)CSSC[C@@H](C(=O)O)NC1=O
log2 fold change (RNA-seq, item: Tnfrsf14; mouse, traumatic brain injury model, frontal cortex and hippocampus; dose not given; relative to: TBI alone): -1.36

N.N.[Cl][Pt][Cl]
BUN (mice, serum; dose not given): 35.4 mg/dL

CCCCCCCCCCCCCCCC(=O)N[C@@H](CCC(=O)NCCCC[C@H](NC(=O)[C@H](CC(=O)O)NC(=O)[C@H](CO)NC(=O)[C@@H](NC(=O)[C@H](Cc1ccccc1)NC(=O)[C@@H](NC(=O)CNC(=O)[C@H](CCC(N)=O)NC(=O)[C@H](CO)NC(=O)[C@@H](N)Cc1c[nH]cn1)[C@@H](C)O)[C@@H](C)O)C(=O)N[C@@H](CO)C(=O)N[C@@H](CCC(=O)O)C(=O)N[C@@H](Cc1ccc(O)cc1)C(=O)N[C@@H](CC(C)C)C(=O)N[C@@H](CC(=O)O)C(=O)N[C@@H](CO)C(=O)N[C@@H](CCC(=O)O)C(=O)N[C@@H](CCCNC(=N)N)C(=O)N[C@@H](C)C(=O)N[C@@H](CCCNC(=N)N)C(=O)N[C@@H](CC(=O)O)C(=O)N[C@@H](Cc1ccccc1)C(=O)N[C@H](C(=O)N[C@@H](C)C(=O)N[C@@H](Cc1c[nH]c2ccccc12)C(=O)N[C@@H](CC(C)C)C(=O)N[C@@H](CCC(=O)O)C(=O)N[C@@H](C)C(=O)NCC(=O)NCC(=O)O)C(C)C)C(=O)O
treatment-related adverse events (item: Dyspepsia; humans all renal groups; subcutaneous, 100 µg single dose): 2.7%

COc1ncccc1-c1cnn2ccc(N3CCN(C(=O)OC(C)C)CC3)nc12
free drug concentration (rat, thermal hyperalgesia model, plasma; oral, 10 mg/kg, 180 min): 21 nM

c1ccc2c(c1)c1cccc3ccc4cccc2c4c31
log K(PDMS-water) (fresh water; 12 (unit not given), 20 °C, S30-1 sampler, 30 µm): 5.12 ± 0.05

CCN1[C@@H](C(=O)NC23CCC(C(=O)O)(CC2)CC3)[C@H](c2cccc(Cl)c2F)[C@]2(C(=O)Nc3cc(Cl)ccc32)C12CCCCC2
grade ≥3 treatment-related adverse events (advanced solid tumour patients; oral, dose not given): 52.4%

COc1ccc(C[C@@H]2NC(=O)[C@H]([C@@H](C)O)NC(=O)[C@@H]3[C@@H]4CCN3C(=O)[C@@H]3Cc5cn(c6ccc(F)cc56)CCCCCCN(Cc5ccc(cc5)CCNC(=O)[C@]5(C)CCCN5C2=O)C(=O)CCC(=O)N[C@@H](C)C(=O)N[C@H](CNC(=O)CCCCC[N+](C)(C)C)C(=O)N[C@@H](Cc2cccc(c2)CNC(=O)CO4)C(=O)N3)cc1
participants with adverse event (item: Hunger; humans; concentration not given, Study-003): 3.2%

COc1cc(Nc2ncc(F)c(Nc3ccc4c(n3)NC(=O)C(C)(C)O4)n2)cc(OC)c1OC
IC50 (Apelin receptor (APLNR, Homo sapiens, UniProt P35414)): > 10 µM

CC1=C(O)C(=O)C=C2C1=CC=C1[C@@]2(C)CC[C@@]2(C)[C@@H]3C[C@](C)(C(=O)O)CC[C@]3(C)CC[C@]12C
body weight gain rate (Sprague-Dawley rat pups, multiple-hit infantile spasms model; i.p., 4 mg/kg, PN3 to PN5, CELA-4 arm): 0.5 g/day

O=C(c1ccc(Cl)cc1)N1CCN2C(=O)N(OC(=O)N3CCOc4ccccc43)C(=O)C2C1 (stereo not drawn)
probe labelling ratio (Peptidyl-prolyl cis-trans isomerase B (Homo sapiens, UniProt P23284); MS-based ABPP; SW-620 conditioned medium; 10 µM, 1 h, 37 °C, median protein ratio; relative to: compound over DMSO): 1.45
